Measurements of several laboratories.
Every numbered part comes from another study and shows a few of its results, in no order.

Block 1
Target: PABPC1L2, full length, GST fusion (mouse, UniProt A0ABA7IW68)
Technique: RNAcompete
Molecule type: RNA
Medium: in vitro
Concentration: 20 nM
Setting: 7-mer, probes averaged, single round
Relative to: mean of 7-mers
Direction: higher = stronger binding
Target sequence (chain): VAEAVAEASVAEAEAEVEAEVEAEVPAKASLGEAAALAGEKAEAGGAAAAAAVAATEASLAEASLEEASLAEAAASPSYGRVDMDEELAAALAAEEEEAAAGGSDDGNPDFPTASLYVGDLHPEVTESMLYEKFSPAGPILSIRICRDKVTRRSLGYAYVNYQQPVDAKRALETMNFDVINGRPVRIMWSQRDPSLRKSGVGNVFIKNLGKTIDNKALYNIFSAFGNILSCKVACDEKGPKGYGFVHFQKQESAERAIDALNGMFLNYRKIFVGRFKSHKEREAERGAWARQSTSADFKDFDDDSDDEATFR
Oligonucleotide | 7-mer Z-score
GAUAGAA | 0.37
GAUAGCC | -0.18
AUGUUGC | -0.199
AGUAUGU | -0.0156
AGCAGAA | 0.379
AACGUGC | 0.0515
UGCUUAA | -0.117
AGCCAUG | -0.161
CCAUCCA | -0.197
GUUUGAG | -0.42
UAGCACC | -0.258
GAGUAGU | -0.208
UAUCCCU | -0.331
GCCCAGU | -0.228
AGAUACA | -0.0881
GUUCCAA | -0.117
GCAUAUC | -0.146
UUGUUUA | -0.335
ACCGGUC | -0.257
UCACGUG | -0.257
UGCGGCU | -0.0699
AGCAGCU | -0.19
UCACCAU | -0.0699
CGGUUGG | -0.0283
UGAAGAA | 0.075

Block 2
Target: RNA binding protein fox-1 homolog 2, RRM domain, GST-SBP tag (RBFOX2, Homo sapiens, UniProt O43251-10, residues 100-194)
Technique: RNA Bind-n-Seq
Molecule type: RNA
Medium: in vitro
Concentration: 365 nM
Setting: natural RNA segment, single round, ends assumed
Relative to: no-protein control
Direction: higher = stronger binding
Constant ends, left off below: GGGAGUUCUACAGUCCGACGAUC … UGGAAUUCUCGGGUGCCAA
Construct (chain): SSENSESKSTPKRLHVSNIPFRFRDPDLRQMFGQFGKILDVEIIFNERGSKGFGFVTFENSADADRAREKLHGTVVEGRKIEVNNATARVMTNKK
Oligonucleotide | RBNS enrichment (R)
UCUCCCAACGAUUUCAGAACUCUGAGCUCAGAGAGACUCCAGAUUUUAAAAAAUAAUUUGAGUGCUUGGAAACUAUUAGCUUUUUAAGUUCCUUCCAAAUAUGUUAGUAC | 0.324
CCUAAAGACGGAUGAAUGAGUCUCUGUGGUGUUGCCUGCUCAUUGUGCAUACCCUUGGUAGACAUUUCUCAUAGUGUGUACUUAAAAAGUGCCUGACAUUGAUUUGUGUU | 0.751
AGUCCUGCUGACCACCUAGUCAUGGACAAAGGCCCAGGACCAGUGACACCCUGCGUCCCUGUGUGCAUUAAGUUCAUUCUGGGUCGCAGCCAUGAAGUGUCACCAGUAUC | 0.21
ACUCUGAAAUUGGUCACUUUCCUAUUACACGGAGUGUGCUAAAACUAAAAAGCAUUUUGAAACAUACAGAAUGUUCUAUUGUCAUUGGGAAAUUUUUCUUUCUAACCCAG | 0.473
CUUUUCCACAUUCAAUGGAAGCUUCAUGGUUGUUCUGACAGUGAAAGCAGUCCUGGAGAUCCCAUUAUUAAUAAAACAAAAAGGCCUGCAGAGAUUCCUGACCACUGAUC | 0.294
AGACAAAUGAAACCACGCUGCGCUUCCGAUGCCCCCGCUUGCCGUGUAAUGGUUCAGCUAAUCCCAUGGCGAGAUGGGGGCUCACUCCGGAGGAGGAGCCAGGCAGCAGG | 0.287
GAUAGGGUUUCUCUGUGUAACAAACAGCUCGGGCUAUUCUGGGAAUUGCUCUGUAGACCACGCUGGCUUCGAACUCACAGAGAUCUGUAUUGUCUCUGCCUCCUGAGUGC | 0.341
AUUAACCUGUGUCUUAGAAUUGUUGUAUAUAGUUCUUUUAAUAUCCAUAGGGUAUAUUUUUGAAUUUUUUGGUGAGUAUUUGUUGAAUUUGAGAUAGCAUACAGUAGAUG | 1.06
GGCGCAUCUGCCCUGGUCAGCUGUUUCUCGAAGGGAGUGAUCUUAUCGAUAGAGGUAGAAAUGGUUUCCCUCCAAGGUUGGGUCAAUGUGUAAAUUGCUAUUCAACACUU | 0.553
UGUUCGUUUUAGUUUACUGGGGACACACAGGAGUCUUUCUGUAAUGACUUAUGUGGUAAAAUGUUUGAGAGUUUGCACUCAAUUUUAAAGAAUUUGCAGUUUCUAACAAG | 0.532
UAUUUGUGUGGAUUCUGCUCAUCACUGUCUCUGUUAGACUUAUUUUGUAGUGGCUGCAUCACAUAUUUUUCACUUGAAUUUUUUUGGAAAUAGCUGAAUGUAAAUAGCAG | 1.34
UGAGGCCUCAGGACCACGGCAUGAUUUCAUGACUCCGAAGUAUUUUACAGAAACAUUUUUUAAAUAAGGGAAAUAUUUUAUAUACCAGAUGGUUCACAAGUGAUGGCUCA | 0.713

Block 3
Target: Sal-like protein 4, full length isoform B (SALL4, Homo sapiens, UniProt Q9UJQ4-2, residues 1-616)
Technique: universal PBM
Molecule type: double-stranded DNA, one strand shown
Medium: in vitro
Concentration: not given
Setting: 8-mer, flanks averaged, mean of replicates
Direction: higher = stronger binding
Target sequence (chain): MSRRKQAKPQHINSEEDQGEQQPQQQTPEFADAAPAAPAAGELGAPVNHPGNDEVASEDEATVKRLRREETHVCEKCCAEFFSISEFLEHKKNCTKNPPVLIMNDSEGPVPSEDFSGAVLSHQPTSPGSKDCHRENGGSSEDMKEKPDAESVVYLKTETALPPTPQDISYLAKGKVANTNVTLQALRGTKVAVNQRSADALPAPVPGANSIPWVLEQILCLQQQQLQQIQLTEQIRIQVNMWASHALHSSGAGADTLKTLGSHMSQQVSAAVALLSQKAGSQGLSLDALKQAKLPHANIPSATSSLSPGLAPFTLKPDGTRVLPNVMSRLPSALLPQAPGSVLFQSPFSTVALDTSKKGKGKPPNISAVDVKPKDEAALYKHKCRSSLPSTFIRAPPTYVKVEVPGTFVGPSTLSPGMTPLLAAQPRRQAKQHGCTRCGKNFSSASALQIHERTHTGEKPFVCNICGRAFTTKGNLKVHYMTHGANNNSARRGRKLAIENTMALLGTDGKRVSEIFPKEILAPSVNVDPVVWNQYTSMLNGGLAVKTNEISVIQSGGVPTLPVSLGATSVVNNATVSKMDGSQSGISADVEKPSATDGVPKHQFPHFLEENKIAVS
Oligonucleotide | E-score
AACCGCAT | 0.108
CTAAACAA | 0.106
AAACTGCT | -0.0203
AACAAAGG | 0.0819
GAAGGGGC | -0.267
GGGACCTA | -0.212
AGGCAAGC | -0.063
CCCGTAAG | -0.0929
GCGGTATA | 0.179
AGTGTTTA | 0.224
AAATAATC | 0.321
ACGTAAGC | -0.141
GGTACCGA | -0.187
CAACTTGA | 0.12
CAGACGAC | -0.198
ACTCTCCG | -0.109
GCCTCCCC | -0.248
CACAACCG | -0.0745
AGTACGAA | 0.123
TATGAACA | 0.353
GAAGGTAC | -0.0899
CTACCCAA | 0.058
CAAGCCCC | -0.38
CTGTAATA | 0.33

Block 4
Target: RING finger protein unkempt homolog, zinc fingers 1-6, SBP tag (UNK, Homo sapiens, UniProt Q9C0B0, residues 30-357)
UniProt Q9C0B0, sequence (30-357, looked up): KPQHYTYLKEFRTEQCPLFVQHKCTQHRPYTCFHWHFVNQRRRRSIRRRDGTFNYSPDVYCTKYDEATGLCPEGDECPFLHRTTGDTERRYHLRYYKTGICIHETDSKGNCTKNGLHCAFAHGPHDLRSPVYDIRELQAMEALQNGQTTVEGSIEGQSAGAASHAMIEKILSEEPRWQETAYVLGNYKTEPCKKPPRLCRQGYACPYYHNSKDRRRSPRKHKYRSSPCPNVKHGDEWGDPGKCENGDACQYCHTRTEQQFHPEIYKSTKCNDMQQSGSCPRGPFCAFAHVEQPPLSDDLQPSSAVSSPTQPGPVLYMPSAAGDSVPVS
Technique: RNA Bind-n-Seq
Molecule type: RNA
Medium: in vitro
Concentration: 100 nM
Setting: RNA with constant flanks, vertebrate orthologous sites, ends assumed
Relative to: input RNA pool
Direction: higher = stronger binding
Constant ends, left off below: GGGAGUUCUACAGUCCGACGAUC … CAACAGAGGAUUGAGCAUCA
Oligonucleotide | bound/input enrichment [ratio]
AGGCUUAGAAACUGGAAUGGAACCAGAAUGUAGCCCAAGGAAAGCAAACAUGAAAUGACCAAAUGACCACCACAUACAGUACAACUCAAUAUGAAUGCUGCCACCCAGGGUAGUGACUUG | 0.313
AUCAUCUGACUGGAUGAAGACCGUCCCAAGUUACAACCAAACAAAUAGCUCCAUGGACUUUAGAAAUUACAUGAUGAGAGAUGAGAAUCUGGAACCACUGCCCAAAAACUGGGAAAUGGC | 0.484
UGGGUUACUCCUAUUAUUAUCAAGUAGCUGGAAUUGUGAAGGUCGGAGUAGUUAGAUCUUUAGCUUUUAUUCCUUUUUUUGUAUUACUAUCCAUGUGUAUAAAUUAUUGAUCAUGUUGCU | 1.73
GAAAAUGGCUUCUGCUCCAUUAAAAAGUAAACAUUGUCCUCCAAAUAUAAAACUCCUUAAUAGAUAUUUUUGAAAUUAAAAUCUUUAAAUUUUAUAAAUCAGUUGUUGCCACUACACAAC | 3.98
UAAUGCAAUGGUUGAAGGCUCUGAGCUCAAAAAGGUUCGGUCCAACUCUAGAGUAUAUCACCGAUACUUUCUUUUAGAUGCAGAUAUGCAGUCCCUGCAUUGGGAACCUUCAAAGAAGGA | 0.424
AGGAAAUGUUAGCUGCUAAUCCCCAGGAACGUCCAGAUGCUUUUGAACUUGAACUGCGAUUAGUCAAAAUUGCAUACAAAGACUGCAACUGGGAUACGUGAUAUAUACUUUUUAAAAAAA | 0.735
UGAGCAUACAUAUACAAUGUGUUUCAAAUGCUGCUUGUAAAAUUAAACCAUCAUCUAGAAUAGAGUUAAUUUGUUAUAAUCAAGCUACAAAUAGGUUUUCUUAAACCAGAGAUGCACUGC | 0.466
GGCUUUUCUGGCAGCCCAGAUGAACCCUUCAUGGGAGCGGUAAAGAAAUUUGUGAAGCGGCAGCGCACACAGCUGUACAGCUGCACCGCCUCUCGCUGCUGUGCUCAGGUGCUUACUACA | 0.357
UGAGCGUCUAUCCGGUUGUAGAGAUAAUUCUUCACGAGGCACUUUGGCUCUAUUUAAUCGUAUUUACAUAUCUAUUUUUUAUAAAUAGCAGUAUAAAUUCUAAGGGGACUUGGUGUUUAU | 0.412
CAAAUUCAUCUCUUAUAUGUCCAAAAAUGACUGAAUUUUUUAAAAGUUGAUAGUUUUAAUUAGCUCUGCCCUCUUGAAGAAGUAUUUUAAUUCACCGCAAACAGAUAUCUGUCUGAUUUA | 0.756
AAGGAUCAAAAAUUCAAGACCAUCCUAAGCUACAUUCCAAGUUUGAGGCCAUCUUCAGCUACAUGAGACCGGGAUAGGGUGGGUAGGGAAGAGCCACAUGUAGAUCAUGGAAGCUCAGGA | 1.16

Block 5
Target: Interferon regulatory factor 5, full length, phosphomimetic (IRF5, Homo sapiens, UniProt Q13568-2, residues 1-514, K96S/S451D/S453D/S456D/S462D)
Technique: protein-binding microarray
Molecule type: double-stranded DNA, one strand shown
Medium: in vitro
Concentration: 250 nM
Setting: 60-bp whole probe
Added: salmon DNA 0.4 mg/ml
Relative to: random background probes
Direction: higher = stronger binding
Constant ends, left off below: GCCTAGCAC … GTCTTGATTCGCTTGACGCTGCTG
Oligonucleotide | log fluorescence [z-score]
GACGATCTTAGACTGGAGACGTGCTAG | -0.338
TGGCACCTCTAGACTCTAAATGTGCTA | -0.343
TAAGATCTCAGTCTCGATTAGTGCTAG | 0.87
TTACTTCCCAATAATCTTTTCGTGCTA | 1.28
GACGTTCTCCTTTTCCTGACGTGCTAG | 0.29
AACGGTCTCGGACTGGGGACGTGCTAG | -0.113
TTAGGTTTCGTTCTCGGTTAGTGCTAG | 7.67
AGTCTCTGCAGGGAGAGAGCGTGCTAG | -0.437
TTAGAACTGAGTCCCGATTAGTGCTAG | -0.142
TTAGGTTTCGACACTGGGTAAGTGCTA | 6.15
GACGATATGAGTCTCGAGACGTGCTAG | 0.614
TTAGGTTTCGACTTTCGGCTAGTGCTA | 9.46
GACGGTATCGACGCTGGGGACGTGCTA | 1.2
GACAGTTTCGACTATCGGGACGTGCTA | 9.28
GACAGTTTCGGTTTCGGGACGTGCTAG | 11.5
TTAGATATCGGGTTTCGGTTAGTGCTA | 8.67
TTAAATTTCGGGTTTCGATTAGTGCTA | 9.66
TTAGTTATCGGTATCGGTTAGTGCTAG | 9.54
TCATTTTTGCATTGCTTACTGTGCTAG | 0.964
GACGGTTTCCTACTGCTGGCGTGCTAG | 0.501

Excerpt of the above (block 5):
Oligonucleotide | log fluorescence [z-score]
TCATTTTTGCATTGCTTACTGTGCTAG | 0.964
TTAGAACTGAGTCCCGATTAGTGCTAG | -0.142
TTAAATTTCGGGTTTCGATTAGTGCTA | 9.66
TTAGGTTTCGACACTGGGTAAGTGCTA | 6.15
AGTCTCTGCAGGGAGAGAGCGTGCTAG | -0.437
TTAGGTTTCGACTTTCGGCTAGTGCTA | 9.46
TTAGTTATCGGTATCGGTTAGTGCTAG | 9.54
